Measured values pooled from the literature.
Each line is one published result; not all experiments were run side by side. ± marks the error that the study gave.
CDK6 with cyclin D3: Cyclin-dependent kinase 6, with cyclin D3 (CDK6, Homo sapiens, UniProt Q00534)
Chain of UniProt Q00534 (whole entry, looked up): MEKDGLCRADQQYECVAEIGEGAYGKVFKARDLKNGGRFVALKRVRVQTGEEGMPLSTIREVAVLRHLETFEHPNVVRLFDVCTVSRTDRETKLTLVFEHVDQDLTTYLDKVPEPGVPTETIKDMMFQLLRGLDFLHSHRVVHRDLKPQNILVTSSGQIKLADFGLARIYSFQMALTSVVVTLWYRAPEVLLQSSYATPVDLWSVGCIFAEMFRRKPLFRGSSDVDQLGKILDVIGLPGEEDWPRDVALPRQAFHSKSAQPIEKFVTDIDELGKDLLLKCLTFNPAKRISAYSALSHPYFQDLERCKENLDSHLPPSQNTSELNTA
mrcB: Penicillin-binding protein 1B (mrcB, Escherichia coli K-12, UniProt P02919)
Chain of UniProt P02919 (whole entry, looked up): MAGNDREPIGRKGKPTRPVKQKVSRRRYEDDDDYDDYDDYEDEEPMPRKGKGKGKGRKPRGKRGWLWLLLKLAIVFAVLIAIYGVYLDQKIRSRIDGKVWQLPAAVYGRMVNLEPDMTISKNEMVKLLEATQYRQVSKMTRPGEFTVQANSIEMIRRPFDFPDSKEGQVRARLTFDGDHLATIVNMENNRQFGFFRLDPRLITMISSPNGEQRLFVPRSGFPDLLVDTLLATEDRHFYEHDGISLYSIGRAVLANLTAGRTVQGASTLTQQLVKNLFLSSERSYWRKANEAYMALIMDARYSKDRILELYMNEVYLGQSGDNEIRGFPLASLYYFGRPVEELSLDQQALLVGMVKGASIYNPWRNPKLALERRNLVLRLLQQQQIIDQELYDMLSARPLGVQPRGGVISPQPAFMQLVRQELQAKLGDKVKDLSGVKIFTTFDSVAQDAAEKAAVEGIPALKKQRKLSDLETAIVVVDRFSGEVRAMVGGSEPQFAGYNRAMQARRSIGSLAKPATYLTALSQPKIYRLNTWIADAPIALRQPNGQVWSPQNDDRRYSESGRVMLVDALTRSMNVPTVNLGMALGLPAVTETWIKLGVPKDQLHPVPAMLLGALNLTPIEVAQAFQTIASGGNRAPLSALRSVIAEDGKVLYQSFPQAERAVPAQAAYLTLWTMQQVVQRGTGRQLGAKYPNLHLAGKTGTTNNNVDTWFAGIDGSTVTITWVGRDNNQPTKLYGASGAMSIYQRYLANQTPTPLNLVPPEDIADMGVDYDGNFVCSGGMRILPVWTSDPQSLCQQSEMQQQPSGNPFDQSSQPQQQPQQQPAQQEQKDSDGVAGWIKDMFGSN
Adhesin FmlH lectin domain: Adhesin FmlH, lectin domain (Escherichia coli, UniProt Q1RBS0)
Chain of UniProt P12821 (whole entry, looked up): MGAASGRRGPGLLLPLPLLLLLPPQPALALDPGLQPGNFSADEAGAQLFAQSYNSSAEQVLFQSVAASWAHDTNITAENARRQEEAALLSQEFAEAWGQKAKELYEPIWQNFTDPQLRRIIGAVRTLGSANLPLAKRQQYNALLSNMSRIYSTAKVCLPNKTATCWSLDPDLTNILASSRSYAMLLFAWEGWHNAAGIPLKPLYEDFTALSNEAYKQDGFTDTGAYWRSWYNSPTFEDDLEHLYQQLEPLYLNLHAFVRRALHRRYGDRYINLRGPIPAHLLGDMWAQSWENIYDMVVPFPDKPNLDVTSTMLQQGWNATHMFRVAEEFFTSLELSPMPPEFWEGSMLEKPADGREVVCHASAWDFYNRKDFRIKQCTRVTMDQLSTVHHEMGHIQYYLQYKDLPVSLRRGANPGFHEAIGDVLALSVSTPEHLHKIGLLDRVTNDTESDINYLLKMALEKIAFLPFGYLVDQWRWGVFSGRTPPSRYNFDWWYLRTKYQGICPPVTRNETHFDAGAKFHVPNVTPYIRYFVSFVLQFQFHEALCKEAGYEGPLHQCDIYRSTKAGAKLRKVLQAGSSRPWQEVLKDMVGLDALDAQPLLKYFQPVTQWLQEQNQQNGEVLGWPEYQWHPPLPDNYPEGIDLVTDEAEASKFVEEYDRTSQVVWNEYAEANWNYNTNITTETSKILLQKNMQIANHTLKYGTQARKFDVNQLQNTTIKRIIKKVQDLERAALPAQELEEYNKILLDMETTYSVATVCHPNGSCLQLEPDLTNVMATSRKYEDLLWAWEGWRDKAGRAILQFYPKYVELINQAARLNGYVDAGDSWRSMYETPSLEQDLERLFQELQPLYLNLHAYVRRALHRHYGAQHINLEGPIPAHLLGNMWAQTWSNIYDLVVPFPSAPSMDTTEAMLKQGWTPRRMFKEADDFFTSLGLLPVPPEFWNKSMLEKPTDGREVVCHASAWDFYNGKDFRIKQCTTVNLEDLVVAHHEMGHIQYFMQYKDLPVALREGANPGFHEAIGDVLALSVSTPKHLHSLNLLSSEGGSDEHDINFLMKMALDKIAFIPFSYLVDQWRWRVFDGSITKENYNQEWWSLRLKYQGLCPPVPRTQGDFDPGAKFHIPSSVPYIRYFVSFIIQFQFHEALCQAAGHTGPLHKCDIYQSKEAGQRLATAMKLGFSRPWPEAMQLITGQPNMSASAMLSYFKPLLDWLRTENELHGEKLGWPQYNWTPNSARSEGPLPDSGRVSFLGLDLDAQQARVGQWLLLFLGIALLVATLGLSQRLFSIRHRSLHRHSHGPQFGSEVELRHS
Chain of UniProt O75116 (whole entry, looked up): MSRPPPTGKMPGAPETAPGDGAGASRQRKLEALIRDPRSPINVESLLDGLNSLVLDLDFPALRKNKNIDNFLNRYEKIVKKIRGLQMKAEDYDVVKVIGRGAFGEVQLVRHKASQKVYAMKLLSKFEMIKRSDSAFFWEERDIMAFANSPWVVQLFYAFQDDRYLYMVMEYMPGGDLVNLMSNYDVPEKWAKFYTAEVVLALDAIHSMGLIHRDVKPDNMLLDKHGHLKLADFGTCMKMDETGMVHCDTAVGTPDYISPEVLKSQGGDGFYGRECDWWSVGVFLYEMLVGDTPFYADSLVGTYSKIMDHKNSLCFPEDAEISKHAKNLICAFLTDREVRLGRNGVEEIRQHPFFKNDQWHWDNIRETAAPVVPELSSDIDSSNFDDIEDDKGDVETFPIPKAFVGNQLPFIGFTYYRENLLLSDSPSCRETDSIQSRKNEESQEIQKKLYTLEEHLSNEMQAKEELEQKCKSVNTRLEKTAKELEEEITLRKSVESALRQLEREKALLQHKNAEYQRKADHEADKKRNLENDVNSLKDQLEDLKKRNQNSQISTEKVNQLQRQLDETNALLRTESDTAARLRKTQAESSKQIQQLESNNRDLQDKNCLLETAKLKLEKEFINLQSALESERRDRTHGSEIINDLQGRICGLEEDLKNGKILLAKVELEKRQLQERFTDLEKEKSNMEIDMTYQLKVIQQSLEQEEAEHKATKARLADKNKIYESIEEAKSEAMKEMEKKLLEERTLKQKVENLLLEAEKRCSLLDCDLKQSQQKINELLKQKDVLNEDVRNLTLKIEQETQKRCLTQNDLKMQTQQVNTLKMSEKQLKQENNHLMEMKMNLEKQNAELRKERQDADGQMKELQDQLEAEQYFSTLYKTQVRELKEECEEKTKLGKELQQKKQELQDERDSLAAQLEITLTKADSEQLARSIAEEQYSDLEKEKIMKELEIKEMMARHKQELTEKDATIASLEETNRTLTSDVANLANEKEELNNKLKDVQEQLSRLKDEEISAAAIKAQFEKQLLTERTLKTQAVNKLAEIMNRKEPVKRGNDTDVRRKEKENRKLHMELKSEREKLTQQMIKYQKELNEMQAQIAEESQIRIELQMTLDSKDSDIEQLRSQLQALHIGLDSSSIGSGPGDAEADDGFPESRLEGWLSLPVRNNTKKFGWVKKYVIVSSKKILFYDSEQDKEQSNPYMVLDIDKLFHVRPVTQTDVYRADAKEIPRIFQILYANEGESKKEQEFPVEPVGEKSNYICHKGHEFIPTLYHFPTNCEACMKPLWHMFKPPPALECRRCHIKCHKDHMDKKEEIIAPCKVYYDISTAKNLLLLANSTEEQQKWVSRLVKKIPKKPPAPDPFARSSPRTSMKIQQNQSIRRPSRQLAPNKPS
Chain of UniProt O70528 (whole entry, looked up): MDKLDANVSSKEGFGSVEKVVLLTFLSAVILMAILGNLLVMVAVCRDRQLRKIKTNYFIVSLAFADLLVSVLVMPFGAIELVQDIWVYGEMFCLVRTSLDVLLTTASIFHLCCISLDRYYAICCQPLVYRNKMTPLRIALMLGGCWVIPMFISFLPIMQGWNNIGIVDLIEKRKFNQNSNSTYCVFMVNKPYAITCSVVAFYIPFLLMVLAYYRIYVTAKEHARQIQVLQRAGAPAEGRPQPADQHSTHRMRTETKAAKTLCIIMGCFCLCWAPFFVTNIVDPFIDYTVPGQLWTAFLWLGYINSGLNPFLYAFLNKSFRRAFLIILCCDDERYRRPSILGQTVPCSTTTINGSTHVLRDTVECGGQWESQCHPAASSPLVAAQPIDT
Chain of UniProt Q9NR56 (whole entry, looked up): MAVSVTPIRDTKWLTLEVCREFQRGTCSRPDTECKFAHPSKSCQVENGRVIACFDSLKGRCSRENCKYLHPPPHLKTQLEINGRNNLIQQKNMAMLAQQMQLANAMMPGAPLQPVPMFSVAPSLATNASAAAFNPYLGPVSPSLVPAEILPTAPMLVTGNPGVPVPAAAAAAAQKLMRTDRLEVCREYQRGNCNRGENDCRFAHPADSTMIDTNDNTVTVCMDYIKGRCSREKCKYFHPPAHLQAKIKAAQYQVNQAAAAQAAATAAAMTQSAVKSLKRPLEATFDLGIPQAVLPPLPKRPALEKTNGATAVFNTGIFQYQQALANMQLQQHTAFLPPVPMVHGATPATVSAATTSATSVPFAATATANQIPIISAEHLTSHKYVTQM
Chain of UniProt Q86VZ5 (whole entry, looked up): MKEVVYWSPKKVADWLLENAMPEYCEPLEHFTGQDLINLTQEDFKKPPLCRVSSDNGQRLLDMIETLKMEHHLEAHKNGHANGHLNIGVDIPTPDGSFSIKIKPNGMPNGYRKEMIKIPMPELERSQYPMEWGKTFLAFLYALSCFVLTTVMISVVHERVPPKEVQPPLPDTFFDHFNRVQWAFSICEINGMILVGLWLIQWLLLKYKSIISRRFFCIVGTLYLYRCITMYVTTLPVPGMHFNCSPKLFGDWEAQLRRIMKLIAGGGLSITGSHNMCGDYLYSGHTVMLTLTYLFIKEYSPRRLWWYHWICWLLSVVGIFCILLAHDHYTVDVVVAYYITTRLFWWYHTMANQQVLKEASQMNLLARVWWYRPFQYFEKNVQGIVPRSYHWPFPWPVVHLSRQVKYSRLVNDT

SMILES	target	test	system	setting	inhibition
Nc1ccccc1NC(=O)c1ccc(Nc2nccc(-c3cn(C4CCCCC4)nn3)n2)cc1	CDK6 with cyclin D3	enzyme activity, inhibitor, TR-FRET		5 µM	-0.89%
CCCCc1ccc(N2C(=O)/C(=N\NC(=N)N)c3cc(OC)ccc32)cc1	mrcB	enzyme activity, inhibitor, HPLC		50 µM	64%
O=C(CCCCCCOc1ccc(Nc2ncc(F)c(-c3cn(C4CCCCC4)nn3)n2)cc1)NO	CDK6 with cyclin D3	enzyme activity, inhibitor, TR-FRET		5 µM	1.95%
C[C@@H](N)C1CCN(S(=O)(=O)c2cccc3c(=O)[nH]ccc23)CC1	Rho-associated protein kinase 2 (ROCK2, Homo sapiens, UniProt O75116)	cell-free assay, competition with immobilised ligand		10 µM	> 95%
OC[C@H]1O[C@@H](Oc2ccccc2-c2ccccc2)[C@H](O)[C@@H](O)[C@H]1O	Adhesin FmlH lectin domain	binding to desialylated mucin, ELISA competition	UPEC UTI89	100 µM	91%
CN(C1COC1)C(C)(C)/C=C(\C#N)C(=O)N1CCC[C@H]1Cn1nc(-c2ccc(Oc3ccccc3)cc2F)c2c(N)ncnc21	Tyrosine-protein kinase BTK (BTK, Homo sapiens, UniProt Q06187)			1 µM, mean	> 90%
Cc1sc2cc(Cl)ccc2c1-c1ccc(N2CCO[C@H](CNC3CCC3)C2)c(C(=O)O)c1	5-hydroxytryptamine receptor 4 (HTR4, Cavia porcellus, UniProt O70528)	radioligand binding	guinea pig	10 µM	73.5%
CC(C)Cn1cc(-c2nc(Nc3ccc(OCCCCCCC(=O)NO)cc3)ncc2F)nn1	CDK6 with cyclin D3	enzyme activity, inhibitor, TR-FRET		5 µM	16.2%
COc1cc(C(=O)NC2CCC(N3CCN(CC4CCC5(CCCC5)C4)CC3)CC2)c(F)cc1Nc1ncc2c(n1)N(C1CCCC1(F)F)CC(F)(F)C(=O)N2C (centres unmarked)	Fibroblast growth factor receptor 3 (FGFR3, Homo sapiens, UniProt P22607)	cell-free assay, TR-FRET		10 µM	5.51%
CSCC[C@H](N)C(=O)N[C@@H](CC(C)C)C(=O)N[C@@H](Cc1ccccc1)C(=O)N[C@@H](CO)C(=O)NCC(=O)O	Angiotensin-converting enzyme (ACE, Homo sapiens, UniProt P12821)	enzyme activity, inhibitor, HPLC		530 µg/mL	80.4%
c1ccc2c(c1)Nc1nc3ccccc3nc1N2	NADPH oxidase 2 (CYBB, Homo sapiens, UniProt P04839)	enzyme activity, inhibitor	membrane preparation	100 µM, together with: NADPH 40 to 200 µM	40 to 50%
CCCCCCCCCCN1C(=O)/C(=N\NC(=N)N)c2cc(C)ccc21	mrcB	enzyme activity, inhibitor, HPLC		50 µM	100%
Cc1ccccc1O[C@@H]1O[C@H](CO)[C@H](O)[C@H](O)[C@H]1O	Adhesin FmlH lectin domain	binding to desialylated mucin, ELISA competition	UPEC UTI89	100 µM	87%
Nc1ccccc1NC(=O)c1ccc(Nc2nccc(-c3cn(C4CCCC4)nn3)n2)cc1	CDK6 with cyclin D3	enzyme activity, inhibitor, TR-FRET		50 nM	6.22%
Cc1ccc(O)c(C(=O)Nc2ccc(CN)cc2)c1	Suppressor of tumorigenicity 14 protein (ST14, Homo sapiens, UniProt Q9Y5Y6)	enzyme activity, inhibitor		10 µM	0%
COc1ccc2nc3cc(Cl)ccc3c(NCCCCNc3nc(N)nc(N)n3)c2c1	Muscleblind-like protein 1, with (CCUG)6 RNA (Homo sapiens, UniProt Q9NR56)	MBNL1-RNA binding, gel mobility shift		up to 250 µM, together with: (CCUG)6 RNA	no inhibition
CC(C)C[C@H](NC(=O)[C@H](CO)NC(=O)[C@H](CCC(=O)O)NC(=O)CNC(=O)[C@H](C)NC(=O)OCc1ccccc1)C(=O)N[C@@H](Cc1ccc(O)cc1)C(=O)N[C@@H](CCC(=O)O)C(N)=O	Adenomatous polyposis coli protein, with Asef (APC, Homo sapiens, UniProt P25054)	binding, fluorescence polarization competition		100 µM	97.1 ± 0.5%
CC(C)=CCC/C(C)=C/CC/C(C)=C/CC/C(C)=C\CC1=C(C)C(=O)c2ccccc2C1=O	IRAK4 (human)	kinase activity, inhibitor, Z'-LYTE FRET		10 µM, together with: ATP 10 µM	4%
CCCCc1ccc(N2C(=O)/C(=N\NC(=N)N)c3ccccc32)cc1	mrcB	enzyme activity, inhibitor, HPLC		50 µM	17%
N#Cc1ccccc1O[C@@H]1O[C@H](CO)[C@H](O)[C@H](O)[C@H]1O	Adhesin FmlH lectin domain	binding to desialylated mucin, ELISA competition	UPEC UTI89	100 µM	95%
COc1ccc(C(=O)N(O)Cc2ccccc2)cc1OC	Carotenoid cleavage dioxygenase 7, chloroplastic (CCD7, Arabidopsis thaliana, UniProt Q7XJM2)	β-carotene cleavage	Escherichia coli expressing CCD7	100 µM, 16 h	inactive
OC[C@H]1O[C@@H](Oc2ccccc2Cl)[C@H](O)[C@@H](O)[C@H]1O	Adhesin FmlH lectin domain	binding to desialylated mucin, ELISA competition	UPEC UTI89	100 µM	90%
O=C(Nc1cccnc1)c1ccccc1OCc1ccccc1	Phosphatidylcholine:ceramide cholinephosphotransferase 1 (Homo sapiens, UniProt Q86VZ5)	enzyme activity, inhibitor		100 µM	35%
CCOCn1cc(F)c(=O)n(C(=O)c2cccc(C(=O)Oc3cc(OC(=O)c4cc(OC(=O)CC)nc(OC(=O)CC)c4)c(Cl)cn3)c2)c1=O	Uridine 5'-monophosphate synthase, OPRT domain (UMPS, Homo sapiens, UniProt P11172)	5-FU phosphorylation, inhibitor	heat-denatured SC-2 xenograft extract	concentration not given	no inhibition
CCCCc1ccc(N2C(=O)/C(=N\NC(=N)N)c3cc(C)ccc32)cc1	mrcB	enzyme activity, inhibitor, HPLC		50 µM	88%
Cc1cc(=O)oc2cc(O[C@@H]3O[C@H](CO)[C@H](O)[C@H](O)[C@H]3O)ccc12	Adhesin FmlH lectin domain	binding to desialylated mucin, ELISA competition	UPEC UTI89	100 µM	85%

Some of these lines once more:
SMILES	target	test	system	setting	inhibition
CCOCn1cc(F)c(=O)n(C(=O)c2cccc(C(=O)Oc3cc(OC(=O)c4cc(OC(=O)CC)nc(OC(=O)CC)c4)c(Cl)cn3)c2)c1=O	Uridine 5'-monophosphate synthase, OPRT domain (UMPS, Homo sapiens, UniProt P11172)	5-FU phosphorylation, inhibitor	heat-denatured SC-2 xenograft extract	concentration not given	no inhibition
CCCCc1ccc(N2C(=O)/C(=N\NC(=N)N)c3cc(C)ccc32)cc1	mrcB	enzyme activity, inhibitor, HPLC		50 µM	88%
